Measured values collected from several papers.
Compare with care: the assays were run in different laboratories.
Sequence of UniProt Q8NE63 (whole entry, looked up): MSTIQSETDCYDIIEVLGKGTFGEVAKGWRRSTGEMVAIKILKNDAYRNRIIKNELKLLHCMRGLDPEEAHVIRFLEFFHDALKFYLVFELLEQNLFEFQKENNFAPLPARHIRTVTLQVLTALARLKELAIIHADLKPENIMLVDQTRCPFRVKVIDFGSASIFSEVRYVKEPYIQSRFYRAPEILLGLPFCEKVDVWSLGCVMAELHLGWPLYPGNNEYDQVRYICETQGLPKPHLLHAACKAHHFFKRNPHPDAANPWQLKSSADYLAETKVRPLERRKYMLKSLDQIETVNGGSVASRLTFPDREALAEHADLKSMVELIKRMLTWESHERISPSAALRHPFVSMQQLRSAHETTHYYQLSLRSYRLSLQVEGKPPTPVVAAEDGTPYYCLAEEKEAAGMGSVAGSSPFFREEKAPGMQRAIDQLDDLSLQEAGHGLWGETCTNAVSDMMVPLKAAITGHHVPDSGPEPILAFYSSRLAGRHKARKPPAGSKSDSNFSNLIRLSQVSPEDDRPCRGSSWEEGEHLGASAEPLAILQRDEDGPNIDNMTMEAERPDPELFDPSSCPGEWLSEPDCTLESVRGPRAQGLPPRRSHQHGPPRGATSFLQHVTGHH
Sequence of UniProt P21675 (whole entry, looked up): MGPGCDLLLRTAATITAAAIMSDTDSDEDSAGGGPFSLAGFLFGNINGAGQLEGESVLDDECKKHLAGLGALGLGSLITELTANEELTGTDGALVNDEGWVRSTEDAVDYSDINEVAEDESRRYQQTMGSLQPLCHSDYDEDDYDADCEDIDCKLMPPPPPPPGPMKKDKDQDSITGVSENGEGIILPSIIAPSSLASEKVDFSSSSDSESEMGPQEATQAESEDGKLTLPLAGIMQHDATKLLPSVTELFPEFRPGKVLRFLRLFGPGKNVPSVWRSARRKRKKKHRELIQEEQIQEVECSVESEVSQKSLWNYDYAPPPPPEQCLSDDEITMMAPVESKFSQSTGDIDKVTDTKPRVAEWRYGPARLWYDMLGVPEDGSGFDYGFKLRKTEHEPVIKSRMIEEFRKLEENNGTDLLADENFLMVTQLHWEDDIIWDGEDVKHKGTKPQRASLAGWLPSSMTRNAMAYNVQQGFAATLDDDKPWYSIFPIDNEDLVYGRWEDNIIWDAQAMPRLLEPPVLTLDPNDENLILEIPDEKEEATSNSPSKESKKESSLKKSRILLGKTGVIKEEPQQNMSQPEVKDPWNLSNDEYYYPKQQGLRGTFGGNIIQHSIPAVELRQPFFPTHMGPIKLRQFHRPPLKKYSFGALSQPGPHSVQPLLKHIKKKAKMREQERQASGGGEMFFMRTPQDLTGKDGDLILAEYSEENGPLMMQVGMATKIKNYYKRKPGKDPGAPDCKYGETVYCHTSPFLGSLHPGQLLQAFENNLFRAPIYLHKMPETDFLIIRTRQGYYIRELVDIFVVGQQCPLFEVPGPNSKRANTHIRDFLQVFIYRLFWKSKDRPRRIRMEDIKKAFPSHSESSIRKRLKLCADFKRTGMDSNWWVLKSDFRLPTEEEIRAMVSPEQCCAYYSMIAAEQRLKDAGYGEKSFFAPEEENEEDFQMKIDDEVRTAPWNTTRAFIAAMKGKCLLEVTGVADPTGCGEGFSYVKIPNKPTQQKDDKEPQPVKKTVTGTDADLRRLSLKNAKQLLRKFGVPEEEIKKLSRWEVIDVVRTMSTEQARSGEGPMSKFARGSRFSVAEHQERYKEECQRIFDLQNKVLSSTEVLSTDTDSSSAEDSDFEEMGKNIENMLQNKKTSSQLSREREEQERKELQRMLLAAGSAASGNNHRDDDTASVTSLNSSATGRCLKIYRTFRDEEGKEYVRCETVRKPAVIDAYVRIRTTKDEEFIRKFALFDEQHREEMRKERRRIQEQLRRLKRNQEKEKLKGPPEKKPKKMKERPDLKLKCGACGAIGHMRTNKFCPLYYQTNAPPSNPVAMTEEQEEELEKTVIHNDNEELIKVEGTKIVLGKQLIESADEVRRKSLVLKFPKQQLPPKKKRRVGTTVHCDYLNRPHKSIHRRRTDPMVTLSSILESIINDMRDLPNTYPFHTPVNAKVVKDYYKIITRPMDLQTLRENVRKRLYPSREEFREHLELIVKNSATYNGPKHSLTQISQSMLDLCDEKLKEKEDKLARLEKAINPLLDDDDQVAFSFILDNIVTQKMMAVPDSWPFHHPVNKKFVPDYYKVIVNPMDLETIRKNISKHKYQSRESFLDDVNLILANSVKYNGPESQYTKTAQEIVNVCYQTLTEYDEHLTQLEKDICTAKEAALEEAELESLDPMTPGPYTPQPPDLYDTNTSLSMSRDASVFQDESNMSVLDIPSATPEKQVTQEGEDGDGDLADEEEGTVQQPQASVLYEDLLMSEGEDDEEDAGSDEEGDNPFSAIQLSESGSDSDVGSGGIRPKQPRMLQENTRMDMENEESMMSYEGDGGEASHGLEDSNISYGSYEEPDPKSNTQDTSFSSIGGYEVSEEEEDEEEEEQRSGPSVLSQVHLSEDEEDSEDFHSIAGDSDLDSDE

Cc1cc(NC(=O)[C@H](O)c2cc(F)cc(F)c2)ccc1-c1cnc(N)c(C(=O)NC(C)C)c1  remaining binding (HIPK4 (Homo sapiens, UniProt Q8NE63); binding, competition with immobilised ligand; 10 µM): 24%
Cc1cnc2nc1Nc1cccc(c1)COC/C=C/COCc1cc(ccc1OCCN1CCOCC1)N2  remaining binding (EGFR (Homo sapiens, UniProt P00533, L858R/T790M); binding; 0.1 µM): 35%
CNC1C[S+]2CC[S+]3CC[S+](C1)[Ru-4]321([N]=C=S)[n]2c3ccc(OC)cc3c3c4c(c5cc(F)c[n+]1c5c32)C(=O)NC4=O (stereo not drawn)  remaining binding (Tyrosine-protein kinase ABL1, non-phosphorylated (ABL1, Homo sapiens, UniProt P00519, F317L); KinomeScan; 0.1 µM; relative to: untreated): 100%
CNC(=O)C1CCN(c2cc(C)c(F)cc2NC(=O)c2ccc(-c3cc(O)ccc3C)c(C)c2)CC1  remaining binding (Tyrosine-protein kinase ABL1, non-phosphorylated (ABL1, Homo sapiens, UniProt P00519, T315I); binding, competition with immobilised ligand; 1 µM): 100%
CCN1CCN(Cc2ccc(C(=O)Nc3ccc(C)c(NCc4cnc5[nH]ccc5c4OC)c3)cc2C(F)(F)F)CC1  remaining binding (Tyrosine-protein kinase ABL1, non-phosphorylated (ABL1, Homo sapiens, UniProt P00519, H396P); binding, competition with immobilised ligand; 1 µM): 0.8%
CC(C)=CC1OC(C)(C)C2C=C3C(=O)C(Cl)=CC(O)C3C3C(O)C4OC4C(=O)C132 (stereo not drawn)  remaining binding (FLT3 (Homo sapiens, UniProt P36888, D835Y); cell-free assay, competition with immobilised ligand; 10 µM): 77%
Cn1cc(-c2cc(N3CCCCS3(=O)=O)ccc2N[C@H]2CC[C@H](C)CC2)c2cc[nH]c2c1=O (stereo in doubt)  remaining binding (Transcription initiation factor TFIID subunit 1, BD2 (TAF1, Homo sapiens, UniProt P21675); binding, competition with immobilised ligand; 1 µM): 97%
CC(=O)N1c2ccc(-c3ccc(CNC(=O)c4cn5cc(-c6cnc(N)nc6)nc(N6CCOCC6)c5n4)cc3)cc2CC[C@@H]1C  remaining binding (BPTF (Homo sapiens, UniProt Q12830); binding, competition with immobilised ligand; 10 µM): 14%
COc1cc(Nc2nccc(-c3cnn4nc(OC)ccc34)n2)cc(C(F)(F)F)c1  remaining binding (FLT3 (Homo sapiens, UniProt P36888, R834Q); binding; 1 µM): 85%
